# Experimental data from different studies.
# Numbered parts are unrelated; each lists some results of a single study.
# Chain of UniProt P11362 (whole entry, looked up): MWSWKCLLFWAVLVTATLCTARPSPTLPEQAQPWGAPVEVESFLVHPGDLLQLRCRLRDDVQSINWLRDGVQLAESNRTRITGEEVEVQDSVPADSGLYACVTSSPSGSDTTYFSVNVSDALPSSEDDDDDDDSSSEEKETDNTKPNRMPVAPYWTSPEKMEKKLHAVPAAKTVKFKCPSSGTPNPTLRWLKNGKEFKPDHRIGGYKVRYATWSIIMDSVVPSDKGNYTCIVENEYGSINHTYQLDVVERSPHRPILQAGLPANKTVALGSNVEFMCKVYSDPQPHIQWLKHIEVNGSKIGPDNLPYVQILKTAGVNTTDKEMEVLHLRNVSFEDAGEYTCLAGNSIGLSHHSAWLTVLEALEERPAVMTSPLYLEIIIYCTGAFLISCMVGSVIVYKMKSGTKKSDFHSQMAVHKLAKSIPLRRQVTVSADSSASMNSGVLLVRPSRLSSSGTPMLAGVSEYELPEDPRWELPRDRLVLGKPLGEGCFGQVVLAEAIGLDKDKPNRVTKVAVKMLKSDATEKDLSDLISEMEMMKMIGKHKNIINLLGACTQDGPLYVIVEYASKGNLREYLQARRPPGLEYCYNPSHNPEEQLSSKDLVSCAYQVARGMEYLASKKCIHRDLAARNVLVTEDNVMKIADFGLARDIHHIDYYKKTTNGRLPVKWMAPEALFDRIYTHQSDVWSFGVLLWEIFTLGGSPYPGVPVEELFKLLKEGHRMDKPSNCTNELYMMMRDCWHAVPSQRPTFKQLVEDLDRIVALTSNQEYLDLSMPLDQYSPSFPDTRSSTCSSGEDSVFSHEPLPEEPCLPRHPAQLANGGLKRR
# Chain of UniProt Q15831 (whole entry, looked up): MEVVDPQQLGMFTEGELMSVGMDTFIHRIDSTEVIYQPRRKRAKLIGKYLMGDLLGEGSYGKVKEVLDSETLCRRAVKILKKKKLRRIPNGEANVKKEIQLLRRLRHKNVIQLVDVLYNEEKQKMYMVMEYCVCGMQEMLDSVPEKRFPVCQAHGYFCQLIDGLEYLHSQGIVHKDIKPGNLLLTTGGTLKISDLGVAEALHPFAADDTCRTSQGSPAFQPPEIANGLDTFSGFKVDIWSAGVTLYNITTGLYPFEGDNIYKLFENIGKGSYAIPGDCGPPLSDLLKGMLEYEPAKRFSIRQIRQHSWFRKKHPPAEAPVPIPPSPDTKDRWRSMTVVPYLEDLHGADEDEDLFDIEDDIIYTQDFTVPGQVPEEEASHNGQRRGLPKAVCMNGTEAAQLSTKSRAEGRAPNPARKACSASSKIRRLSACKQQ
# Chain of UniProt Q12866 (whole entry, looked up): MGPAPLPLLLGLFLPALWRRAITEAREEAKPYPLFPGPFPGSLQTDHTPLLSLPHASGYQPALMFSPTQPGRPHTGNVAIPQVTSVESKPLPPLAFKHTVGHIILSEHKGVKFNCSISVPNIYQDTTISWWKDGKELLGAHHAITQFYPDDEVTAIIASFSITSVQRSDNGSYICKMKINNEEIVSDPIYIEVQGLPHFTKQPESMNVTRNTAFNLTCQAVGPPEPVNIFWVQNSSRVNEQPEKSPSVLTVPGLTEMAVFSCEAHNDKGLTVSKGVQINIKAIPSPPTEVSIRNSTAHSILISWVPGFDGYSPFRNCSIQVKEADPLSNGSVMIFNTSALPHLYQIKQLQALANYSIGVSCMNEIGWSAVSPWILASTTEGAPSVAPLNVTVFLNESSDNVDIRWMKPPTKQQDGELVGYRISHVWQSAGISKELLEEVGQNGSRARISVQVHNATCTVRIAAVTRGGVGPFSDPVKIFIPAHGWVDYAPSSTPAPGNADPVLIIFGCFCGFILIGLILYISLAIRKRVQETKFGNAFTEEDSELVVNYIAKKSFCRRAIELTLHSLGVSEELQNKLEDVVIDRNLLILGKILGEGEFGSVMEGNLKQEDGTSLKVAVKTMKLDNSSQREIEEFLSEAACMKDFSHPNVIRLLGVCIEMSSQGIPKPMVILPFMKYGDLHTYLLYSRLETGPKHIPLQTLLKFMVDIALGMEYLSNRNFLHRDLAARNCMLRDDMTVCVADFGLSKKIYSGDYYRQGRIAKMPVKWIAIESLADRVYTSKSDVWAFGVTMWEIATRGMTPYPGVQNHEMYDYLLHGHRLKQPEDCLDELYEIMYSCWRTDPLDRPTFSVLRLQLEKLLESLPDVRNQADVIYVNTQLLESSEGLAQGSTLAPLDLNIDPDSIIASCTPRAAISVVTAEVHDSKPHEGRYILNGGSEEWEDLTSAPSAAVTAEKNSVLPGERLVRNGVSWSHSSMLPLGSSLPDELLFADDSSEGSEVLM
# Chain of UniProt Q8IYT8 (whole entry, looked up): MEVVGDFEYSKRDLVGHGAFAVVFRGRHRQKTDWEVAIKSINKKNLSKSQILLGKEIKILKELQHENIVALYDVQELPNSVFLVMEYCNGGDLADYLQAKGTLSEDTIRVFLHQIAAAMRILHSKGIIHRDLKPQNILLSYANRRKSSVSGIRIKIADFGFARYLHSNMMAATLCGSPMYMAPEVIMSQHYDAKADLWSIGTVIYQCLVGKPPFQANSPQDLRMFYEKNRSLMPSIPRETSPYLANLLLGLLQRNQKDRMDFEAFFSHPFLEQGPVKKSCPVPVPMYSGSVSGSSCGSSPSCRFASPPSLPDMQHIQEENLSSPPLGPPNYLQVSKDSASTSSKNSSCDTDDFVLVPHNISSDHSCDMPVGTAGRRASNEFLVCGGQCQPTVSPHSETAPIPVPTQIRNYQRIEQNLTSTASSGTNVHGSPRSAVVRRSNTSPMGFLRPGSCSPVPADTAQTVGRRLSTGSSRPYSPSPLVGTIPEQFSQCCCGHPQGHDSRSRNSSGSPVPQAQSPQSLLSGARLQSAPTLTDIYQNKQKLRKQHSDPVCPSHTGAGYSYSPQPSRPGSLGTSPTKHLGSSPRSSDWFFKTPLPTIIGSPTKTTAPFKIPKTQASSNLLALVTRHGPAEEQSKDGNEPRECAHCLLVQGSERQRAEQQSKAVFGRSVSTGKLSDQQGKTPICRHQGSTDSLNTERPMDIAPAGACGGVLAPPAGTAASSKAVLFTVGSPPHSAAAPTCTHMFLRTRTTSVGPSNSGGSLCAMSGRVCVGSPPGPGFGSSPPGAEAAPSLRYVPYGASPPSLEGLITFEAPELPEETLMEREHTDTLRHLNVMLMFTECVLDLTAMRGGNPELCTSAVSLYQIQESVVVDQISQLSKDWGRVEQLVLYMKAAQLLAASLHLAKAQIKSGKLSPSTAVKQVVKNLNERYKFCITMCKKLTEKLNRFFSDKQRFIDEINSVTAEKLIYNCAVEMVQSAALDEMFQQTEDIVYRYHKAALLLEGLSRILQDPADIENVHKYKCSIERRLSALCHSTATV
# Chain of UniProt P10398 (whole entry, looked up): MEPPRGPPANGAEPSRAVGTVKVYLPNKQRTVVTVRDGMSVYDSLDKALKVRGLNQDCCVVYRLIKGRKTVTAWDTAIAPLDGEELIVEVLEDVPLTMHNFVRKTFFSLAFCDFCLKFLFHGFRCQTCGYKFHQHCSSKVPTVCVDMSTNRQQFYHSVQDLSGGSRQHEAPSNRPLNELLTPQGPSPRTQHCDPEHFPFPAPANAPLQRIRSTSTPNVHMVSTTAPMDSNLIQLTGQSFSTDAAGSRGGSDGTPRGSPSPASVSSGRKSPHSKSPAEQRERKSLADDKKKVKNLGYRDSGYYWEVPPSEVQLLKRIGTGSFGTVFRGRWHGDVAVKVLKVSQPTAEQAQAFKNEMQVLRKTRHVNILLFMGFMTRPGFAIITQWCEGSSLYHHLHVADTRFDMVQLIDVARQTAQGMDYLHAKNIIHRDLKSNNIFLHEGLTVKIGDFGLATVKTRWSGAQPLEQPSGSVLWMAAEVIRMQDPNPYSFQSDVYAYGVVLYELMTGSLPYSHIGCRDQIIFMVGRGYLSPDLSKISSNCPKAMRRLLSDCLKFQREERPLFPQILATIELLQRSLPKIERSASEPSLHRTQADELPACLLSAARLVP

# Sample 1 — read-out: cell-free assay; method: competition with immobilised ligand; tested at: 1 µM
# SMILES: COc1ccc2c(O[C@@H]3C[C@H]4C(=O)N[C@]5(C(=O)O)CC5/C=C\CCCCC[C@H](NC(=O)OC5CCCC5)C(=O)N4C3)cc(-c3csc(NC(=O)C(C)C)n3)nc2c1C (stereo partly shown)
target,remaining binding
"FLT3 (Homo sapiens, UniProt P36888, D835V/ITD)",71%
"Receptor-type tyrosine-protein kinase FLT3, autoinhibited (FLT3, Homo sapiens, UniProt P36888)",87%
"STK11 (Homo sapiens, UniProt Q15831)",100%
"SIK2 (Homo sapiens, UniProt Q9H0K1)",100%
"STK10 (Homo sapiens, UniProt O94804)",100%
"FGFR1 (Homo sapiens, UniProt P11362)",98%
"STK16 (Homo sapiens, UniProt O75716)",100%
"Tyrosine-protein kinase ABL1, non-phosphorylated (ABL1, Homo sapiens, UniProt P00519, F317L)",75%
"EGFR (Homo sapiens, UniProt P00533, T790M)",85%
"EGFR (Homo sapiens, UniProt P00533, L858R)",100%

# Sample 2 — method: universal PBM; molecule type: double-stranded DNA, one strand shown; medium: in vitro; tested at: 600 nM; direction: higher = stronger binding
# Target: Sal-like protein 4, full length isoform A (SALL4, Homo sapiens, UniProt Q9UJQ4, residues 1-1053)
# Chain of UniProt Q9UJQ4 (whole entry, looked up): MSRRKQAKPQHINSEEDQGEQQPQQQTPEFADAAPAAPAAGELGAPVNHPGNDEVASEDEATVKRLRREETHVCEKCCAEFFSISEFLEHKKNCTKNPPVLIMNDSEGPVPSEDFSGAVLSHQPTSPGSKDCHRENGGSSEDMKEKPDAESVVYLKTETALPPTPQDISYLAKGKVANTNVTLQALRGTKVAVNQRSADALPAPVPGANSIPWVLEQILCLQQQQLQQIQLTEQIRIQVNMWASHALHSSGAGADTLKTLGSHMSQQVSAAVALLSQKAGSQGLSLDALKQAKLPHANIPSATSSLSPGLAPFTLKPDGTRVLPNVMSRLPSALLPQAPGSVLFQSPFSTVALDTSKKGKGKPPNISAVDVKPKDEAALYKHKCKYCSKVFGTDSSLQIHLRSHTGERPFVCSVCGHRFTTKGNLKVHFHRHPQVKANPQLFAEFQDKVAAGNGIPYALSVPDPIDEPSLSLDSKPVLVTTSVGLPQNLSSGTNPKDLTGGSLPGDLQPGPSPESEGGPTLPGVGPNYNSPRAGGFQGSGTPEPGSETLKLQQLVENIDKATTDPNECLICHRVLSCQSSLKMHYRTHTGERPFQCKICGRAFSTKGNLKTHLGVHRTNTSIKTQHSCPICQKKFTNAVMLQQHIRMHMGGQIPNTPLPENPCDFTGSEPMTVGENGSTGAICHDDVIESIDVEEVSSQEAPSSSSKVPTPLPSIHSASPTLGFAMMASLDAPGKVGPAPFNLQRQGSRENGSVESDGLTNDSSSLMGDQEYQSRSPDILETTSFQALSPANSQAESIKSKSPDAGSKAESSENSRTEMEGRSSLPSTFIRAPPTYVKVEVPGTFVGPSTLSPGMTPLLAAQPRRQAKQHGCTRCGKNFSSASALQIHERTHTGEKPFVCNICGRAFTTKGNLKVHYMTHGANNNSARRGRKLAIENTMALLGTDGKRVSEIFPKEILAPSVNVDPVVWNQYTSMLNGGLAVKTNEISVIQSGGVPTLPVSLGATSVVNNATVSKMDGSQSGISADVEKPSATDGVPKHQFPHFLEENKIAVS
# Setting: 8-mer, flanks averaged, mean of replicates
Strand,E-score
ATAACAGG,0.0891
AGTGTGTC,0.0671
GACGCGCC,-0.33
GGCTAATA,0.212
AAGTCCTG,-0.184
AGTTCGGC,-0.143
CCTTACCC,-0.195
CAAGGCGC,-0.22

# Sample 3 — SMILES: COc1cc2ncc(-c3ccccc3)nc2cc1OC; read-out: enzyme activity; mode: inhibitor; tested at: 0.5 µM; baseline: control
target,remaining activity [%]
"MAP3K14 (Homo sapiens, UniProt Q99558)",115
"FGFR1 (Homo sapiens, UniProt P11362)",92.9
"TEK (Homo sapiens, UniProt Q02763)",85.7
"CSNK1G3 (Homo sapiens, UniProt Q9Y6M4)",104
"MAPKAPK2 (Homo sapiens, UniProt P49137)",85.9
"ARAF (Homo sapiens, UniProt P10398)",87.6
"NEK6 (Homo sapiens, UniProt Q9HC98)",93.8
"MERTK (Homo sapiens, UniProt Q12866)",80
"MAP3K5 (Homo sapiens, UniProt Q99683)",108
"TBK1 (Homo sapiens, UniProt Q9UHD2)",87.2
"JAK3 (Homo sapiens, UniProt P52333)",90.3
"ULK2 (Homo sapiens, UniProt Q8IYT8)",113
"FGFR3 (Homo sapiens, UniProt P22607)",96
"CSNK1G2 (Homo sapiens, UniProt P78368)",84

# Sample 4 — method: protein-binding microarray; molecule type: double-stranded DNA, one strand shown; medium: in vitro; tested at: not given; direction: higher = stronger binding
# Target: Myc proto-oncogene protein, bHLH-zipper, MAX partner unstated (MYC, Homo sapiens, UniProt P01106, residues 368-449)
# Chain of UniProt P01106 (368-449, looked up): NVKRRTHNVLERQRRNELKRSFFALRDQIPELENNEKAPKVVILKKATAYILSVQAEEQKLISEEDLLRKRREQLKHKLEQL
# Setting: k-mer, scored over probes, only values ≥0.25
Strand,E-score
ACGCGGTG,0.349
CGAGGTAG,0.254
ACATGGGC,0.298
AGGGCACG,0.318
ATGTGCTG,0.329
ACGTGTCA,0.388
CGCGCGAC,0.267
GCATGGAA,0.36

# Some of these lines once more (sample 4):
Strand,E-score
ACGTGTCA,0.388
CGCGCGAC,0.267
ACATGGGC,0.298
ATGTGCTG,0.329
